Results of several laboratories.
Every numbered part comes from another study and shows a few of its results, in no order.
Chain of UniProt P45985 (whole entry, looked up): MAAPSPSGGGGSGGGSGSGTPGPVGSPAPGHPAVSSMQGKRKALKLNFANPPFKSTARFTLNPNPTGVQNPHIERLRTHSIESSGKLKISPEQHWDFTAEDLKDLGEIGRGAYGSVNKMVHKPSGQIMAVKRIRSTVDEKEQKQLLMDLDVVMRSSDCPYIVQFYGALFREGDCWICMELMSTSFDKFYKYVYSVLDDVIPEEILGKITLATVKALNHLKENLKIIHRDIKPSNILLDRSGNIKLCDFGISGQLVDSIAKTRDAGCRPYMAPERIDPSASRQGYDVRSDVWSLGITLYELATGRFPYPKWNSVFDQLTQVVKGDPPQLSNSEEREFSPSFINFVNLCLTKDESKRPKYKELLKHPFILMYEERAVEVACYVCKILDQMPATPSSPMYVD
Chain of UniProt Q6P3R8 (whole entry, looked up): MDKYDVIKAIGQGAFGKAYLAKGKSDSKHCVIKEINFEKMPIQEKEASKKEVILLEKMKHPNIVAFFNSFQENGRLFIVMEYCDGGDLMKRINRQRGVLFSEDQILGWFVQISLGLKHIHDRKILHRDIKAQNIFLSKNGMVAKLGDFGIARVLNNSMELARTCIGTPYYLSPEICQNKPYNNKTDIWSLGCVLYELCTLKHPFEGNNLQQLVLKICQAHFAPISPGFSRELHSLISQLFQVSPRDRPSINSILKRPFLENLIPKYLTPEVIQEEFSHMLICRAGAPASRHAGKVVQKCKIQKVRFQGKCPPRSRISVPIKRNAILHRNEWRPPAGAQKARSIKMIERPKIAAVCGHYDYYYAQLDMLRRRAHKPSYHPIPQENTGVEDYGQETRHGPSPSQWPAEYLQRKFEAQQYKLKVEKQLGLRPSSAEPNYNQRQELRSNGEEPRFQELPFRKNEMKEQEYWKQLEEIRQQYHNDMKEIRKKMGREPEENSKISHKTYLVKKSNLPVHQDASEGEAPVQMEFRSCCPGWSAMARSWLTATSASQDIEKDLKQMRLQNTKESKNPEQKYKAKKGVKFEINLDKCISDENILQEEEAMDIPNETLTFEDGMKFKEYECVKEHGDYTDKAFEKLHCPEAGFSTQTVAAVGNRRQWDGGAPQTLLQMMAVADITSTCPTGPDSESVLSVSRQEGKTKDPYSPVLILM
Chain of UniProt P48730 (whole entry, looked up): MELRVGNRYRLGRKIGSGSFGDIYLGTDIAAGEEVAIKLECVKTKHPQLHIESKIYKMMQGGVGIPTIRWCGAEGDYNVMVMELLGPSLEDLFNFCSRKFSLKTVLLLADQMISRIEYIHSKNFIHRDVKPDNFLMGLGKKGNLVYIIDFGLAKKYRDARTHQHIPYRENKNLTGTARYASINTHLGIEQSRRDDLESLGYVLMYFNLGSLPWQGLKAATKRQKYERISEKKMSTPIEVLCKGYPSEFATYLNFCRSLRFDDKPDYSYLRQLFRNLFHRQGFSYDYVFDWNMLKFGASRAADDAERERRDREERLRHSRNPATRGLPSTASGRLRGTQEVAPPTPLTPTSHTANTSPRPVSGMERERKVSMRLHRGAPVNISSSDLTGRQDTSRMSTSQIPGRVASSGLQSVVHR
Chain of UniProt P37173 (whole entry, looked up): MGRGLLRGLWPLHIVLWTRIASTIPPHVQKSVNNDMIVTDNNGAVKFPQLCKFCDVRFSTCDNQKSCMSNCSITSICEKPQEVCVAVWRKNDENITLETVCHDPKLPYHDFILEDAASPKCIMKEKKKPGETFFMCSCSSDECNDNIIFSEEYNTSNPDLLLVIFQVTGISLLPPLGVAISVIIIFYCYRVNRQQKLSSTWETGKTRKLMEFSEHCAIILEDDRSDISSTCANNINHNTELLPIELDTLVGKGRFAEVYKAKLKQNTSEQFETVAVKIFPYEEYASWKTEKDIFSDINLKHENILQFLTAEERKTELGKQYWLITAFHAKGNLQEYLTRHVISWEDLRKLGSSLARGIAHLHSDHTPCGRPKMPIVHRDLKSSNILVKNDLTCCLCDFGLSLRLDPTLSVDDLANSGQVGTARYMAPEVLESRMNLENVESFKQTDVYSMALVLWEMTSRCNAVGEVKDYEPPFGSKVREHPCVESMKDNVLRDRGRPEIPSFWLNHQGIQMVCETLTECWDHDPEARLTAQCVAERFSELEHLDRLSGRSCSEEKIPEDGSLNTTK
Chain of UniProt P50750 (whole entry, looked up): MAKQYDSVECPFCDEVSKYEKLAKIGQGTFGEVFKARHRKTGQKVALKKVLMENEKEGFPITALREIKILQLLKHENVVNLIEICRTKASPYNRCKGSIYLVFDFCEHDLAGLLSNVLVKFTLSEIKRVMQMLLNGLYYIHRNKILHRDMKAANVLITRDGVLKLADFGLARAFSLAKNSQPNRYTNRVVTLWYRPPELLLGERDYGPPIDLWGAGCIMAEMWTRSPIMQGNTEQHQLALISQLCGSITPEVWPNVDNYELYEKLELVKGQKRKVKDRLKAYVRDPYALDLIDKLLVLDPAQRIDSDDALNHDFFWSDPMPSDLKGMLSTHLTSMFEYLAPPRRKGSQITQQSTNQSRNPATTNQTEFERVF

Study 1
Target: Myosin light chain kinase, smooth muscle (MYLK, Homo sapiens, UniProt Q15746)
Chain of UniProt Q15746 (whole entry, looked up): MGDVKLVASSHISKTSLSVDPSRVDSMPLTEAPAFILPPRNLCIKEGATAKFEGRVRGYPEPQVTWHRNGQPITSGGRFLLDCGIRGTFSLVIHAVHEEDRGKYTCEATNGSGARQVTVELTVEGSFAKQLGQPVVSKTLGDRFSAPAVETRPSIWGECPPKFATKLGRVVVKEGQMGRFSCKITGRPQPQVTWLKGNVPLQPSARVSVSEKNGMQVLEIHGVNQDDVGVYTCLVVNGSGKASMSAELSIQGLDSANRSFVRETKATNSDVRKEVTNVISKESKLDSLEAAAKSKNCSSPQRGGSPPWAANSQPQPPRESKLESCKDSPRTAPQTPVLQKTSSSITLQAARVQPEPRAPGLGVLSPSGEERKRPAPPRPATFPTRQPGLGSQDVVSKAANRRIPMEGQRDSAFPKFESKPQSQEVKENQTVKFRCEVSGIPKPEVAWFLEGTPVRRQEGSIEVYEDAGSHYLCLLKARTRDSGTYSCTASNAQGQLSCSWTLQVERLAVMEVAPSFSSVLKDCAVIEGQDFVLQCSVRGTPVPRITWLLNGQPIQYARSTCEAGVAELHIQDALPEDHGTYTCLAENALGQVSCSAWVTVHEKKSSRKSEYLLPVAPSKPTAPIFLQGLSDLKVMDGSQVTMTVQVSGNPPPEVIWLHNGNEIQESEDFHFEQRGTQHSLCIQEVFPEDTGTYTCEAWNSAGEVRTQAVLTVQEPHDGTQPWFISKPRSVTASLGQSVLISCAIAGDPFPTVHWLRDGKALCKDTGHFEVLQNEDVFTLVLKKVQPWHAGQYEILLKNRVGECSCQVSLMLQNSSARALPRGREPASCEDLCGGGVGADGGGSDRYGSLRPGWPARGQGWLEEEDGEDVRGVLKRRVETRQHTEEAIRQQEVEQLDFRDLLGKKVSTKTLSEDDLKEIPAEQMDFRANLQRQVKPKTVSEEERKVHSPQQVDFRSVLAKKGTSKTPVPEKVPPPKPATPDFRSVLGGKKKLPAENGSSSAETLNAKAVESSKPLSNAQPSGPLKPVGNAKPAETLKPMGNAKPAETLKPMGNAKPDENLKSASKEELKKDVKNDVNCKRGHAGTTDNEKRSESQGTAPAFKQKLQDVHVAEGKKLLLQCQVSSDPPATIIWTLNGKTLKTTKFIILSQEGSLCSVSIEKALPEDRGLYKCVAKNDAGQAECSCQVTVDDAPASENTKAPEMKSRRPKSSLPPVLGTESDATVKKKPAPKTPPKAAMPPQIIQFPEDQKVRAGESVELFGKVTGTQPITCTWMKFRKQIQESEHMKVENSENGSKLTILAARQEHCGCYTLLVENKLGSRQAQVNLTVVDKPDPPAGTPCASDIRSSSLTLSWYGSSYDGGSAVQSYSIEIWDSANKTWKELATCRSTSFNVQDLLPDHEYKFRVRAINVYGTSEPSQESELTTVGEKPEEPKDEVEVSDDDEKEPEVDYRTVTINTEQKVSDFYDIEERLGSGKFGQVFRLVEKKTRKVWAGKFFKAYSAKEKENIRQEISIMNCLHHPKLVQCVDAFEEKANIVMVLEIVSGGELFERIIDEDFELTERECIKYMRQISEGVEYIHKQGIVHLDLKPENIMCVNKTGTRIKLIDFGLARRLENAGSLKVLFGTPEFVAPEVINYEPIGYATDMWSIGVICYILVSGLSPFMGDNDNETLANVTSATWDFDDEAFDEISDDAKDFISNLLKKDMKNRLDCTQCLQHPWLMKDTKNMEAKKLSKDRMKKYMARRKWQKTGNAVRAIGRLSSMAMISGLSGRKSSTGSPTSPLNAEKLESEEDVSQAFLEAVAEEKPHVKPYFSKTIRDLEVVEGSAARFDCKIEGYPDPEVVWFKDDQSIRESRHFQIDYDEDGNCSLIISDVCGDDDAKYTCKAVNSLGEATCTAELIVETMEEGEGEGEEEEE
Effect on: enzyme activity
Action: inhibitor
Tested at: 0.5 µM
Baseline: control
SMILES	remaining activity [%]
CCc1[nH]c(-c2ccc(OC)cc2)nc1-c1ccncc1	104
CC(=O)c1ccc(N2CCOCC2)cc1O	91.1
Fc1ccc(-c2nc3n(c2-c2ccncc2)CCS3)cc1	105
O=C1Cc2c([nH]c3ccc([N+](=O)[O-])cc23)-c2ccccc2N1	88.8
O=S(=O)(NCCNC/C=C/c1ccc(Br)cc1)c1cccc2cnccc12	90.8
CCCC(=O)Oc1ccc2[nH]c(C(=O)c3cc4ccccc4[nH]3)cc2c1	102
Nc1nccc(-c2c(-c3ccc(F)cc3)ncn2C2CCNCC2)n1	99.8
Cc1cc(Nc2nc(-c3ccccc3)nc3ccccc23)n[nH]1	60.2
N#CC(=C(N)Sc1ccc(N)cc1)c1ccccc1C(F)(F)F	94.9
Nc1nc(Nc2ccc(S(N)(=O)=O)cc2)nn1C(=O)c1c(F)cccc1F	80
Nc1ncnc2c1cnn2-c1ccccc1	99.7
Cc1ccc(NC2=CC(=O)c3sc(C)nc3C2=O)cc1	90.1
Cc1cncc2cccc(S(=O)(=O)N3CCCN(C(=O)CN)C[C@@H]3C)c12	103
CSc1nc(-c2ccnc(N[C@@H](C)c3ccccc3)c2)c(-c2ccc(F)cc2)[nH]1 (racemic)	100
NC(=O)c1ccc(N(C(N)=O)c2c(F)cccc2F)nc1-c1ccc(F)cc1F	101
CC#CC(=O)Nc1cc2c(Nc3ccc(F)c(Cl)c3)ncnc2cn1	98.8
O=C1NC(=O)C(c2c[nH]c3ccccc23)=C1c1c[nH]c2ccccc12	74.4
CC(C)(C)n1nc(Cc2cccc3ccccc23)c2c(N)ncnc21	98.2
CC[n+]1c(/C=C/N(C)c2ccccc2)n(-c2ccccc2)c2ccc(-c3nc4ccccc4s3)cc21	98.4
Oc1ccc(Nc2nc(-c3ccc(Cl)cc3)cs2)cc1	104
COc1ccc(S(=O)(=O)N(CCO)c2ccccc2CN(C)CC=Cc2ccc(Cl)cc2)cc1	98.4
COc1cc(Nc2c(C#N)cnc3cc(OCCCN4CCN(C)CC4)c(OC)cc23)c(Cl)cc1Cl	72

Study 2
Compound: O=C(Nc1cnn(-c2csc(C(=O)NC3COC3)c2)c1)Nc1c(F)cccc1Cl
Tested at: 5 µM
target	effect on	method	baseline	remaining activity [%]
MAPKAPK2 (Homo sapiens, UniProt P49137)	enzyme activity		untreated control	92.9
STK32C (Homo sapiens, UniProt Q86UX6)	enzyme activity		untreated control	85.5
PTK2B (Homo sapiens, UniProt Q14289)	enzyme activity		untreated control	89.7
CDC42BPG (Homo sapiens, UniProt Q6DT37)	kinase activity	kinase panel profiling		119
LATS1 (Homo sapiens, UniProt O95835)	enzyme activity		untreated control	92.2
GRK7 (Homo sapiens, UniProt Q8WTQ7)	enzyme activity		untreated control	92.6
MAP2K4 (Homo sapiens, UniProt P45985)	enzyme activity		untreated control	128
MAPK14 (Homo sapiens, UniProt Q16539)	enzyme activity		untreated control	104
MARK3 (Homo sapiens, UniProt P27448)	enzyme activity		untreated control	98.4
BMX (Homo sapiens, UniProt P51813)	enzyme activity		untreated control	94.8
JAK1 (Homo sapiens, UniProt P23458)	enzyme activity		untreated control	104
TAOK2 (Homo sapiens, UniProt Q9UL54)	enzyme activity		untreated control	84.7
Cyclin-dependent kinase 6, with cyclin D3 (CDK6, Homo sapiens, UniProt Q00534)	enzyme activity		untreated control	92.4
TGFBR2 (Homo sapiens, UniProt P37173)	enzyme activity		untreated control	82.1

Study 3
Target: Calcium/calmodulin-dependent protein kinase type II subunit alpha (CAMK2A, Homo sapiens, UniProt Q9UQM7)
Chain of UniProt Q9UQM7 (whole entry, looked up): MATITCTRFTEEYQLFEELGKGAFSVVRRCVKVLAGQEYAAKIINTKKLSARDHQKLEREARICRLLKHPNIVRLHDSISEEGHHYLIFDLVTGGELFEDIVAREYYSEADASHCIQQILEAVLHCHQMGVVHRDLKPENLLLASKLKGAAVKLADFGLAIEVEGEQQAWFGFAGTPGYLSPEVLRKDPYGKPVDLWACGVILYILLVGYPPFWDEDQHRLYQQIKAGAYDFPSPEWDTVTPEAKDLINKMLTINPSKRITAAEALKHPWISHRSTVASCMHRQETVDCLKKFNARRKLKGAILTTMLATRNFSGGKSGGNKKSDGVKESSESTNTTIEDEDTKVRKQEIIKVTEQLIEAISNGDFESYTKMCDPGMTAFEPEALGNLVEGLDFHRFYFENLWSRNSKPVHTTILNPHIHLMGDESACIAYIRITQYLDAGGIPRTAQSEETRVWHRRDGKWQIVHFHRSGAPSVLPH
Effect on: enzyme activity
Action: inhibitor
Tested at: 10 µM
Structure (SMILES)	inhibition [%]
COc1cc(-c2coc3c([C@@H]4O[C@H](CO)[C@@H](O)[C@H](O)[C@H]4O)c(O)ccc3c2=O)ccc1O	5
C=C(C)[C@H]1C=C[C@@](C)(O)CC1	2
N[C@@H](CSCSC[C@H](N)C(=O)O)C(=O)O	23
COCCOC(=O)C1=C(C)NC(C)=C(C(=O)OC/C=C/c2ccccc2)C1c1cccc([N+](=O)[O-])c1 (centres unmarked)	10
COc1ccc(-c2oc3cc(O)cc(O)c3c(=O)c2O)cc1O	-6
O=C(/C=C/c1ccc(O)cc1)c1c(O)cc(O)c(O)c1OC1O[C@H](CO)[C@@H](O)[C@H](O)[C@H]1O (some centres unmarked)	-15
Oc1c(I)cc(Cl)c2cccnc12	-2
Cc1cc(C)c(NC(=O)CN(CC(=O)O)CC(=O)O)c(C)c1Br	0

Study 4
SMILES: O=C(N1CCS(=O)(=O)CC1)N1C[C@H](c2ccc(OC(F)(F)F)cc2)C[C@H](c2nc(C3CC3)no2)C1
Effect on: cell-free assay
Method: competition with immobilised ligand
Tested at: 1 µM
target	remaining binding
FLT3 (Homo sapiens, UniProt P36888, R834Q)	100%
Tyrosine-protein kinase ABL1, phosphorylated (ABL1, Homo sapiens, UniProt P00519)	92%
PAK3 (Homo sapiens, UniProt O75914)	100%
MET (Homo sapiens, UniProt P08581, M1250T)	100%
MARK1 (Homo sapiens, UniProt Q9P0L2)	100%
NEK5 (Homo sapiens, UniProt Q6P3R8)	98%
CDK17 (Homo sapiens, UniProt Q00537)	98%
CDK9 (Homo sapiens, UniProt P50750)	100%
MAP2K4 (Homo sapiens, UniProt P45985)	95%
Ribosomal protein S6 kinase alpha-2, N-terminal kinase domain (RPS6KA2, Homo sapiens, UniProt Q15349)	100%
AXL (Homo sapiens, UniProt P30530)	100%
CSNK1D (Homo sapiens, UniProt P48730)	100%
CAMKK1 (Homo sapiens, UniProt Q8N5S9)	100%
FGFR1 (Homo sapiens, UniProt P11362)	100%
MAPK9 (Homo sapiens, UniProt P45984)	84%
